Results from different studies.
Compare with care: the assays were run in different laboratories. ± gives the spread as reported.
CYP2D6: Cytochrome P450 2D6 (CYP2D6, Homo sapiens, UniProt P10635)
Chain of UniProt P10635 (whole entry, looked up): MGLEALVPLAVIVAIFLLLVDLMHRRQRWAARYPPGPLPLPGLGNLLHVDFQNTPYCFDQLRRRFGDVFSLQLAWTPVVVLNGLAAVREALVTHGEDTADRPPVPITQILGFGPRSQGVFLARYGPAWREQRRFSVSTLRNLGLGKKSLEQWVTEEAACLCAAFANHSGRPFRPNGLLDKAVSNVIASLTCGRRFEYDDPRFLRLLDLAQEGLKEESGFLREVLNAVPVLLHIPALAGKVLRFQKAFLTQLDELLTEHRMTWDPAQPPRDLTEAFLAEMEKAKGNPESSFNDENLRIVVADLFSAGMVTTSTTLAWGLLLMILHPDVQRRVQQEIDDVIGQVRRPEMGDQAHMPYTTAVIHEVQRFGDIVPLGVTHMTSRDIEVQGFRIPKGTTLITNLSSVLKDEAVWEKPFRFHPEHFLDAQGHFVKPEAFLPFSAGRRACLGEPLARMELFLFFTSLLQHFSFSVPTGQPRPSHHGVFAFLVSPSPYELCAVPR
DCN1-like protein 1: DCN1-like protein 1 (Homo sapiens, UniProt Q96GG9)
Chain of UniProt Q96GG9 (whole entry, looked up): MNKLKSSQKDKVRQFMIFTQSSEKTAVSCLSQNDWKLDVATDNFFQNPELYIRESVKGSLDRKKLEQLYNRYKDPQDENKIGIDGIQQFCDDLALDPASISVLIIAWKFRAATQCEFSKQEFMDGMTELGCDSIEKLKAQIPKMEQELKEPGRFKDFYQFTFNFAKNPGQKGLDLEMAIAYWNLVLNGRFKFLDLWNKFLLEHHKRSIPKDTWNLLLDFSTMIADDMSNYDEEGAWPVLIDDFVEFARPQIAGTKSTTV
Chain of UniProt Q8NET8 (whole entry, unmodified, looked up): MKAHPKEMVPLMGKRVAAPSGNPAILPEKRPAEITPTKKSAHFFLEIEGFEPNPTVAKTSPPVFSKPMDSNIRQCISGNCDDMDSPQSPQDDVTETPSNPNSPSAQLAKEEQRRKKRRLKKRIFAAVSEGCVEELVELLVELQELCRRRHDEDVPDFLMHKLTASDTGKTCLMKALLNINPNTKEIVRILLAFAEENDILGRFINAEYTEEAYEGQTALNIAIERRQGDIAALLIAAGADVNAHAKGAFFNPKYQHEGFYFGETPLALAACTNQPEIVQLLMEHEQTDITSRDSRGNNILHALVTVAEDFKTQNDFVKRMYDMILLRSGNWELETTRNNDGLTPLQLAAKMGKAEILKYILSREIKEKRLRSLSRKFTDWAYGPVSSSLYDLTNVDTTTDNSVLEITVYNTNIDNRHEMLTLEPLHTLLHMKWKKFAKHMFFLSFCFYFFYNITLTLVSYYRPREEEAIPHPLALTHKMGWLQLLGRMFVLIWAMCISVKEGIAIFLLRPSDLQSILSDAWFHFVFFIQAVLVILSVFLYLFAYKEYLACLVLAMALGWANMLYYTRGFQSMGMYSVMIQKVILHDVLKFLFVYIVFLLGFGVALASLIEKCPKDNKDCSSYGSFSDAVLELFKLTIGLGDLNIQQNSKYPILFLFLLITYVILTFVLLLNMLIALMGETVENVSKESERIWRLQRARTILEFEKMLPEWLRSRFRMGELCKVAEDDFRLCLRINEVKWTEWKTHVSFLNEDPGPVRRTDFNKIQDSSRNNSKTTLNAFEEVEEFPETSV
Chain of UniProt P28335 (whole entry, looked up): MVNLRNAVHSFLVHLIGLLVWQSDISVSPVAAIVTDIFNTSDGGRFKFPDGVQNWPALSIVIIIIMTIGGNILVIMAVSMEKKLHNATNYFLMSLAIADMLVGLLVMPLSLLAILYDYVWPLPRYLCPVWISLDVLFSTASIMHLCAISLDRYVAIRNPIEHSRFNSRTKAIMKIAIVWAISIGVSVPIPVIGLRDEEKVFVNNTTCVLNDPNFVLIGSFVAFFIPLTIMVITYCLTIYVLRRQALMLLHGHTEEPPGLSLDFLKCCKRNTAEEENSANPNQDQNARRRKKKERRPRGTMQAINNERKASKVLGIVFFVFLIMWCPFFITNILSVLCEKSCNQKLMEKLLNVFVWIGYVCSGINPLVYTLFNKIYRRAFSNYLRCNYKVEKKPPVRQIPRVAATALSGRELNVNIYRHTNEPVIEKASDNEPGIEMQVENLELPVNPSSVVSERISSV
Chain of UniProt P34968 (whole entry, looked up): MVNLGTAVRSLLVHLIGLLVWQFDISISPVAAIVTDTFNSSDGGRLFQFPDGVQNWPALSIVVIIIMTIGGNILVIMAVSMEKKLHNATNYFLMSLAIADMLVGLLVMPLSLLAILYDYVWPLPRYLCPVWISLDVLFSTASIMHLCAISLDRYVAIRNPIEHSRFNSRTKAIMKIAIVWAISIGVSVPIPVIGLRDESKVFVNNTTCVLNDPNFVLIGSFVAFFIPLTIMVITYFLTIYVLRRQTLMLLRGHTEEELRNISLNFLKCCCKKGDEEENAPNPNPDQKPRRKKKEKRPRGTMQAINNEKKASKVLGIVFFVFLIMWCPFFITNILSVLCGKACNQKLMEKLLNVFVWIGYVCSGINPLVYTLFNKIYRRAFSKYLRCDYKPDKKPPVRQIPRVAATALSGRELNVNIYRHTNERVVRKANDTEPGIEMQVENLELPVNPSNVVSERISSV
Chain of UniProt P08172 (whole entry, looked up): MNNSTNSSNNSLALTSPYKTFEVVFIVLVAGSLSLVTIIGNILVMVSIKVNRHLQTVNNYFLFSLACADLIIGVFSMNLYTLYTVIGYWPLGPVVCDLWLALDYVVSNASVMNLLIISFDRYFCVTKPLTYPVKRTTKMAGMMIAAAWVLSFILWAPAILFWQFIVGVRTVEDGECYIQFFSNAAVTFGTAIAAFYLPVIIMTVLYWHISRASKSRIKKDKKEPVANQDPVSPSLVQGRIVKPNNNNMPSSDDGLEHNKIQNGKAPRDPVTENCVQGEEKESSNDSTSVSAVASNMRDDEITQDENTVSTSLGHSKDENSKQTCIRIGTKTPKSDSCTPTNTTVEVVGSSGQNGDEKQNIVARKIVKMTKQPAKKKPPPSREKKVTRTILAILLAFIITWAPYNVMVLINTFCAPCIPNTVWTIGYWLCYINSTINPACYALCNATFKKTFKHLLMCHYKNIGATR
Chain of UniProt Q13561 (whole entry, looked up): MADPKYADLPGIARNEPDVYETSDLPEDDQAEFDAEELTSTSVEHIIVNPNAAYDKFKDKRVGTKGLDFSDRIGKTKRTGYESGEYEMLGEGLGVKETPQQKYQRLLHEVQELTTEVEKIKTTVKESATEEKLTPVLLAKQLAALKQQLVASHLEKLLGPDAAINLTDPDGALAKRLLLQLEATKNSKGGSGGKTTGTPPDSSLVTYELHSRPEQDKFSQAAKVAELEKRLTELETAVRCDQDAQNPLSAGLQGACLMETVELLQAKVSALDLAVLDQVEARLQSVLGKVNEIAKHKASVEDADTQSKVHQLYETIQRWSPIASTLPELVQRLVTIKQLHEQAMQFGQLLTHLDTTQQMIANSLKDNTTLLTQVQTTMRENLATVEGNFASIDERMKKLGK

CC(NC(C)(C)C)C(=O)c1cccc(Cl)c1 (stereo not drawn)  IC50 (CYP2D6; pH 7.4): 23.9 µM
Cc1nn(-c2ccccc2)c2c1[C@H](c1ccc(O)nc1)[C@H](NC(=O)c1cccc(C(F)(F)F)c1)C(=O)N2  IC50 (DCN1-like protein 1): > 15 µM
C[C@H]1CN(c2n[nH]c3nc(N[C@H]4CC[C@H](NS(=O)(=O)CCC(F)(F)F)CC4)ncc23)CCO1  remaining binding (Dynactin subunit 2 (DCTN2, Homo sapiens, UniProt Q13561); Kinobeads competition, item: DCTN2; 0.032 µM, unit not given; reference: vehicle): 0.92
CNC(C)Cc1ccc2c(c1)OCO2 (stereo not drawn)  IC50 (CYP2D6; enzyme activity, time-dependent inhibitor; preincubation without NADPH, with: dextromethorphan O-demethylation): 29.8 µM
Clc1cccc(N2CCNCC2)c1Cl  EC50 (Muscarinic acetylcholine receptor M2 (CHRM2, Homo sapiens, UniProt P08172); ERK1/2 phosphorylation, agonist; CHO cells): > 20 µM
Cc1cccc([C@H](C)c2cnc[nH]2)c1C  Kd (CYP2D6; binding; 20 min, pH 7.4, purified protein, 2% DMSO): 4.8 µM
CCN1C(=O)[C@@H](NS(=O)(=O)c2cccc(C(F)(F)F)c2)[C@@H](c2ccc(F)cc2)c2c(C)nn(-c3ccccc3)c21  IC50 (DCN1-like protein 1): > 15 µM
COc1cc(CCN)c(OC)cc1C#N  EC50 (5-hydroxytryptamine receptor 2C (Htr2c, Mus musculus, UniProt P34968); agonist; cell-based): 0.204 µM
CC[C@H](C)[C@H](NC(=O)[C@H](Cc1ccccc1)NC(=O)[C@H](CCC(=O)O)NC(=O)[C@H](CCCNC(=N)N)NC(=O)[C@H](C)NC(=O)[C@H](C)NC(=O)[C@H](CCC(N)=O)NC(=O)[C@H](CCC(=O)O)NC(=O)[C@H](CCC(=O)O)NC(=O)[C@H](CC(C)C)NC(=O)[C@H](Cc1ccc(O)cc1)NC(=O)[C@H](CO)NC(=O)[C@H](CO)NC(=O)[C@@H](NC(=O)[C@H](CC(=O)O)NC(=O)[C@H](CO)NC(=O)[C@@H](NC(=O)[C@H](Cc1ccccc1)NC(=O)[C@@H](NC(=O)CNC(=O)[C@H](CCC(=O)O)NC(=O)[C@H](C)NC(=O)CCc1c[nH]cn1)[C@@H](C)O)[C@@H](C)O)C(C)C)C(=O)N[C@@H](C)C(=O)N[C@@H](Cc1c[nH]c2ccccc12)C(=O)N[C@@H](CC(C)C)C(=O)N[C@H](C(=O)N[C@@H](CCCNC(=N)N)C(=O)NCC(=O)N[C@@H](CCCNC(=N)N)C(=O)N[C@@H](CCCCNC(=O)COCCOCCNC(=O)COCCOCCNC(=O)CC[C@H](NC(=O)CCCCCCCCCCCCCCCCC(=O)O)C(=O)O)C(=O)NCC(=O)NCC(=O)N[C@@H](CO)C(=O)N[C@@H](CCCCNc1c(NCCCCCN(O)C(=O)CCC(=O)NCCCCCN(O)C(=O)CCC(=O)NCCCCCN(O)C(C)=O)c(=O)c1=O)C(=O)O)C(C)C [zirconium-89 labelled]  tissue uptake (ex vivo gamma counting; rat, femur; subcutaneous, 3 nmol/kg, 24 h, with: [89Zr]-labelled peptide): 0.12 %ID/g
Cc1nc([C@H]2c3c(C)nn(-c4ccccc4)c3NC(=O)[C@H]2NC(=O)c2cccc(C(F)(F)F)c2)cs1  IC50 (DCN1-like protein 1): > 15 µM
CC(C)OC(=O)[C@H](C)N[P@](=O)(OC[C@H]1O[C@@H](n2ccc(=O)[nH]c2=O)[C@](C)(F)[C@@H]1O)Oc1ccccc1  Kd (Genome polyprotein, NS5 (GP1, West Nile virus, UniProt Q9Q6P4); binding): 6810 µM
CC[C@H](C)[C@@H]1NC(=O)[C@@H]2CCCN2C(=O)[C@H](CC(C)C)NC(=O)[C@H](CC(C)C)NC(=O)CNC(=O)[C@@H](NC(=O)[C@@H](NC(=O)[C@H](CC(=O)O)NC(=O)CNC(=O)[C@@H](NC(=O)[C@H](C)NC(=O)CNC(=O)[C@H](CCCCN)NC(=O)[C@H](CC(C)C)NC(=O)[C@H](CC(C)C)NC(=O)[C@H](CCCCN)NC(=O)CNC(=O)[C@@H](NC(=O)[C@@H](N)CC(C)C)C(C)C)C(C)C)C(C)C)CSSC[C@@H](C(=O)O)NC1=O  log2 fold change (RNA-seq, item: Bnip2; mouse, traumatic brain injury model, frontal cortex and hippocampus; dose not given; reference: TBI alone): 0.024
CCCc1cc(O)c2c(c1)OC(C)(C)[C@@H]1CCC(C)=C[C@@H]21  EC50 (Transient receptor potential cation channel subfamily V member 3 (TRPV3, Homo sapiens, UniProt Q8NET8, A560M); calcium uptake, agonist; HEK293S; mutant A560M, site 1): 9.35 ± 0.91 µM
COc1cc(Nc2ncc(F)c(Nc3ccc4c(n3)NC(=O)C(C)(C)O4)n2)cc(OC)c1OC  IC50 (CRF receptor): > 10 µM
COc1cc(C[C@@H](C)N)c(OC)cc1I  EC50 (5-hydroxytryptamine receptor 2C (HTR2C, Homo sapiens, UniProt P28335); agonist): 0.00087 ± 0.00023 µM
CO[C@H]1C[C@@H]2CC[C@@H](C)[C@@](O)(O2)C(=O)C(=O)N2CCCC[C@H]2C(=O)O[C@H]([C@H](C)C[C@@H]2CC[C@@H](OC(=O)NCCOCCOCCOCCOCCOCCOCCOCCOCCC(=O)N3CCc4cc(Cn5nc(-c6ccc7oc(N)nc7c6)c6c(N)ncnc65)ccc4C3)[C@H](OC)C2)C[C@@H](O)[C@H](C)/C=C(\C)[C@@H](O)[C@@H](OC)C(=O)[C@H](C)C[C@H](C)/C=C/C=C/C=C/1C  incidence of Nausea TEAE (patients with advanced solid tumours; intravenous, 1.6 mg/3 mg weekly, any grade): 20%
Cc1nn(-c2ccccc2)c2c1[C@H](c1cnsc1)[C@H](NC(=O)c1cccc(C(F)(F)F)c1)C(=O)N2  IC50 (DCN1-like protein 1): > 15 µM
C[C@@H](O)[C@@H](CO)NC(=O)[C@@H](CCCNC(=N)N)NC(=O)[C@@H]1CCCN1C(=O)[C@@H]1CSSC[C@H](NC(=O)[C@H](Cc2ccccc2)NC(=O)CN2CCN(CC(=O)O)CCN(CC(=O)O)CCN(CC(=O)O)CC2)C(=O)N[C@@H](Cc2ccc(O)cc2)C(=O)N[C@@H](Cc2ccccc2)C(=O)N[C@@H](CCC(N)=O)C(=O)N[C@@H](CC(N)=O)C(=O)N1 [gallium-68 labelled]  tissue uptake (healthy Wistar rat, kidneys; intravenous, 8 MBq, 60 min, individual animals): 3.16 %ID/g

For quick reference, copied from above:
Clc1cccc(N2CCNCC2)c1Cl  EC50 (Muscarinic acetylcholine receptor M2 (CHRM2, Homo sapiens, UniProt P08172); ERK1/2 phosphorylation, agonist; CHO cells): > 20 µM
